# Assay results pooled from the literature.
# Each numbered part is a random draw from the data of one study; scales do not carry over between parts. Values joined by “and” are separate records of one study, mostly repeats; a detail may differ.
# UniProt P00519, sequence (whole entry, unmodified, looked up): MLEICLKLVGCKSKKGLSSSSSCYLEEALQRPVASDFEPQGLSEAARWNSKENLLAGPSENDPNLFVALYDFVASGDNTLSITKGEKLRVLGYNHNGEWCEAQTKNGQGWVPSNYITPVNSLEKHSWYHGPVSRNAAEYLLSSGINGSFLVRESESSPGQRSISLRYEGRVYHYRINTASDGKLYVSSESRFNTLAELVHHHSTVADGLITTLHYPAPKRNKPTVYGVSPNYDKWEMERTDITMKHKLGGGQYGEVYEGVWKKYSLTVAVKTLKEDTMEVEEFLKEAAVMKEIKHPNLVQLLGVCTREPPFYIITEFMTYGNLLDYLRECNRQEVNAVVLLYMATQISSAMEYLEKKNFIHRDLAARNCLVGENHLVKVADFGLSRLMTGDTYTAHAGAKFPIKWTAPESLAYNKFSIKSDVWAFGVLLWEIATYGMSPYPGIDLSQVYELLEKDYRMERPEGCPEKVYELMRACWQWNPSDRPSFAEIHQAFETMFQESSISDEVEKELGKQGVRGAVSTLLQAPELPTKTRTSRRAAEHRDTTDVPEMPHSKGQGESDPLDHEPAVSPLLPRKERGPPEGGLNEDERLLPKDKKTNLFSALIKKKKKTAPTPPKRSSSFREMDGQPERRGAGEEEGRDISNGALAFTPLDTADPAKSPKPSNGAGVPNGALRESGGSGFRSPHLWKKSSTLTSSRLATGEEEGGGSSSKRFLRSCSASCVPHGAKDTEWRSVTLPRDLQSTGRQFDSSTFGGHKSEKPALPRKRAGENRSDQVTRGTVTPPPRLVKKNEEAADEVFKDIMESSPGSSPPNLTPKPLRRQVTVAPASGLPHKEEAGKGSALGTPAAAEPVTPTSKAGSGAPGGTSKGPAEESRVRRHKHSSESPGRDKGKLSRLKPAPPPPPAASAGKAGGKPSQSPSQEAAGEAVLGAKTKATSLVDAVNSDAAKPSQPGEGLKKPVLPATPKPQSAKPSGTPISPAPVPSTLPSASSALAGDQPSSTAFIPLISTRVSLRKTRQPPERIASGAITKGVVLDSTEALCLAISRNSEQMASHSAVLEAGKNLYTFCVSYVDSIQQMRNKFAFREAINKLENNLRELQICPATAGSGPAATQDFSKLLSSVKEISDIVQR
# UniProt P21731, sequence (whole entry, looked up): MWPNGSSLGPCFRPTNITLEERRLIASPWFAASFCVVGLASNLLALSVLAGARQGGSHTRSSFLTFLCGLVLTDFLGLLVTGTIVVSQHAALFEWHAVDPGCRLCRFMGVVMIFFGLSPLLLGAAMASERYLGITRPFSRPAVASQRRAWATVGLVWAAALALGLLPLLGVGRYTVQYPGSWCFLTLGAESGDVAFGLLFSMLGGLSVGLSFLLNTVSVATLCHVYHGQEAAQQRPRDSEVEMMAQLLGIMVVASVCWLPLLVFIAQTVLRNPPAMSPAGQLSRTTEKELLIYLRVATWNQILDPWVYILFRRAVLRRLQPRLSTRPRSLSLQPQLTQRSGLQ
# UniProt Q9UIK4, sequence (whole entry, looked up): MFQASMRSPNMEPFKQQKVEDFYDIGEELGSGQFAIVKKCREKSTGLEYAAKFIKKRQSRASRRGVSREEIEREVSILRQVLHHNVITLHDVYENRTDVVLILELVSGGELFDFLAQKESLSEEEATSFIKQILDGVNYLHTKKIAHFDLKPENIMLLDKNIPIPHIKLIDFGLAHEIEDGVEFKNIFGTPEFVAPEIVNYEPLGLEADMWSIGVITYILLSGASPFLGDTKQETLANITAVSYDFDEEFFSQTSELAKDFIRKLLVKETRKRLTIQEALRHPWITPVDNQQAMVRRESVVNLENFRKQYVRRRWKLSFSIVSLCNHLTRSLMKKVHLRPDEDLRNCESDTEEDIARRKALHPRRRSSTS
# UniProt P32298, sequence (whole entry, looked up): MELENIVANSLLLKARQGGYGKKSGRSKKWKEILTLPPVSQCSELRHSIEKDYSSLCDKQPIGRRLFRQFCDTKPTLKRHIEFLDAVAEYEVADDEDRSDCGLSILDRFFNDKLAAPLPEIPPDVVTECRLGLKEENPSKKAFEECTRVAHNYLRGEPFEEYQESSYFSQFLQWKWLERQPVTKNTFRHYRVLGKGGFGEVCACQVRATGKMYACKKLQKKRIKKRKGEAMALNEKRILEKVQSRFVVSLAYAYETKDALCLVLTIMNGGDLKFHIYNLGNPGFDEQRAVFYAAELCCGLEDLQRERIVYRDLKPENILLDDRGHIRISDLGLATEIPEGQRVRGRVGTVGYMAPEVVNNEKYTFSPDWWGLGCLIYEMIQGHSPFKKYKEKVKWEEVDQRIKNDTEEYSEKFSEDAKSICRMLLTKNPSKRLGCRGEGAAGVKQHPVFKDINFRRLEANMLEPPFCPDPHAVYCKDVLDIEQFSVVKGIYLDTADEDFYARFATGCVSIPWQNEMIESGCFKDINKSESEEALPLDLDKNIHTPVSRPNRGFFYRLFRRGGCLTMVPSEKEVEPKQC
# UniProt O14920, sequence (whole entry, looked up): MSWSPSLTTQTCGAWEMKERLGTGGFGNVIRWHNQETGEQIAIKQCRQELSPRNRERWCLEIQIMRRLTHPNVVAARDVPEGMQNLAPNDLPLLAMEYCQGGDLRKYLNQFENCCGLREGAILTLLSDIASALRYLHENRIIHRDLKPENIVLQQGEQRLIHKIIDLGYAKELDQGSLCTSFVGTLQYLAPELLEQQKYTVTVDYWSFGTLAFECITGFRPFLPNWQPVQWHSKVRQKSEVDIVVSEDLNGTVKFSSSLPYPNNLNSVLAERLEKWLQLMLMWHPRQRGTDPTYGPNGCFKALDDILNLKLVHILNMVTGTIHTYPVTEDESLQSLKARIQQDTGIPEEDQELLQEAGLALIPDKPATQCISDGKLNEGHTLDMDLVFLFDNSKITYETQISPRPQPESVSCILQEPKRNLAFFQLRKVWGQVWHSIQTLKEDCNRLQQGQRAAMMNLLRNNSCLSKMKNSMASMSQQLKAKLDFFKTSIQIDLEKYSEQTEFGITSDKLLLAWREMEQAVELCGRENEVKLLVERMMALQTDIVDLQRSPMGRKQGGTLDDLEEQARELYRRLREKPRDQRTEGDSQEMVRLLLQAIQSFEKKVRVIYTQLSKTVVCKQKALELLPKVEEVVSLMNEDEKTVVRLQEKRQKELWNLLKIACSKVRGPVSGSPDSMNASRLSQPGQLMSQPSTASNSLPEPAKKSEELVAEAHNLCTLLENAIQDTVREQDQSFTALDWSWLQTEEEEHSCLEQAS
# UniProt P37173, sequence (whole entry, looked up): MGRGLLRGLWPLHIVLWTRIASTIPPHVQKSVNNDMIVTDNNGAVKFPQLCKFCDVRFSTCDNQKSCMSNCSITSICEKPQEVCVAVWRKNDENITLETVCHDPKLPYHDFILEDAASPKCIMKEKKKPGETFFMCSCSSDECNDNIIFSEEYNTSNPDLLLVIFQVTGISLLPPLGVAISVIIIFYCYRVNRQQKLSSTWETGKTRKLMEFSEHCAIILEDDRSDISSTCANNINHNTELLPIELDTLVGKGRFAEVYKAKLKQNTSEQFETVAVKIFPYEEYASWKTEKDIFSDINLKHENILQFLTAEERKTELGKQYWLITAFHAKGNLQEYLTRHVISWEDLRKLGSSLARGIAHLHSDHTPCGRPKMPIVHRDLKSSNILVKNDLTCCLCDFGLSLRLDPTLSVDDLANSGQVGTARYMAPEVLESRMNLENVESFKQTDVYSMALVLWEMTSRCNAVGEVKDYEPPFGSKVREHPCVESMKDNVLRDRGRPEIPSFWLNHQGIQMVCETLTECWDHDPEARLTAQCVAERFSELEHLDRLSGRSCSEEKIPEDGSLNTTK
# UniProt O95747, sequence (whole entry, looked up): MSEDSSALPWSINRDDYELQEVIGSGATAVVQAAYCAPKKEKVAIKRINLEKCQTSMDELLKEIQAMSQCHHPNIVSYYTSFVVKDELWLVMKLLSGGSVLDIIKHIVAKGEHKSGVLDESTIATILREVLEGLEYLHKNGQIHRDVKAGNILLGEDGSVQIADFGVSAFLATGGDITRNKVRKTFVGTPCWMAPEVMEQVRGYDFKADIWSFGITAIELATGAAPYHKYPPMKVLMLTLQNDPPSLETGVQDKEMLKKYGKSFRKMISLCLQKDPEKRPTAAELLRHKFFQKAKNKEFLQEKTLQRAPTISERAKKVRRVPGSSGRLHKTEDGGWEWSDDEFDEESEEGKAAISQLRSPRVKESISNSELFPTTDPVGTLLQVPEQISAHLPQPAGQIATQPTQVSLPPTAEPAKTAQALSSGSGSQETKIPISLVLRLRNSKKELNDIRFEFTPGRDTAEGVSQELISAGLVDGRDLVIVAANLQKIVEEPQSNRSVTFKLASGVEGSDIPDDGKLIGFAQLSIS
# UniProt Q15831, sequence (whole entry, looked up): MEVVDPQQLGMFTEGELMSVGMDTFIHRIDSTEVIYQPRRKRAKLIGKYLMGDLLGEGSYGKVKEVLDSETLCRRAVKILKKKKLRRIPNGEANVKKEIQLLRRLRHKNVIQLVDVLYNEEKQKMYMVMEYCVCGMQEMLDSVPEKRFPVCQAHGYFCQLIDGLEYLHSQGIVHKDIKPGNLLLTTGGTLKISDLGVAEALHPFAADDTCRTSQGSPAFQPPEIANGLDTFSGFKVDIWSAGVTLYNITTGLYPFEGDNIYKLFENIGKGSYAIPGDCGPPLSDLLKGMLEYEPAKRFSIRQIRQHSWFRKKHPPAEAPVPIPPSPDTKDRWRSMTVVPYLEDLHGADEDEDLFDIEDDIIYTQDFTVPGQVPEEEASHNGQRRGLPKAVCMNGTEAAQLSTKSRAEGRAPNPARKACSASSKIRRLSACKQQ
# UniProt P11802, sequence (whole entry, looked up): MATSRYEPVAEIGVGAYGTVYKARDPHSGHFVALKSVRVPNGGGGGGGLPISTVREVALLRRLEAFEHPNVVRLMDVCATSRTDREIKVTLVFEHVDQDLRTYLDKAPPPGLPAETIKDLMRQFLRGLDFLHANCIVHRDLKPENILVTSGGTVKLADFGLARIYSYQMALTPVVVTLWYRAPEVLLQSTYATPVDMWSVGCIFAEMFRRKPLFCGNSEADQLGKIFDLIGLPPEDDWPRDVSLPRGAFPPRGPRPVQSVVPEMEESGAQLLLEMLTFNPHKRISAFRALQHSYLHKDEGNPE

# Block 1
# SMILES: COc1ccc2[nH]c3c4[nH]c5ccc(OC)cc5c4c4c(c3c2c1)C(=O)NC4=O
# Concentration: 1 µM
target,read-out,method,remaining binding [%]
"ABL1 (Homo sapiens, UniProt P00519, Q252H)",,,36
"CSNK1E (Homo sapiens, UniProt P49674)",binding,competition with immobilised ligand,52
"GRK4 (Homo sapiens, UniProt P32298)",binding,,100
"LATS2 (Homo sapiens, UniProt Q9NRM7)",binding,,43
"TRPM6 (Homo sapiens, UniProt Q9BX84)",binding,,79
"STK17B (Homo sapiens, UniProt O94768)",binding,,2.2
"Tyrosine-protein kinase ABL1, phosphorylated (ABL1, Homo sapiens, UniProt P00519, E255K)",binding,competition with immobilised ligand,64

# Block 2
# SMILES: CCN(c1nc(N)c(C(=O)N=C(N)N)nc1Cl)C(C)C
# Read-out: β-arrestin recruitment
# Mode: agonist
# Method: PRESTO-Tango
# Concentration: 10 µM
# Baseline: untreated
target,fold over basal
"Leukotriene B4 receptor 2, isoform b (LTB4R2, Homo sapiens, UniProt Q9NPC1)",0.93
"AVPR2 (Homo sapiens, UniProt P30518)",1.25
"Opsin-5 (OPN5, Homo sapiens, UniProt Q6U736)",0.9
"Probable G-protein coupled receptor 153 (GPR153, Homo sapiens, UniProt Q6NV75)",0.83
"G-protein coupled receptor family C group 6 member A (GPRC6A, Homo sapiens, UniProt Q5T6X5)",0.91 fold
"ADRA2A (Homo sapiens, UniProt P08913)",0.91
"TBXA2R (Homo sapiens, UniProt P21731)",1.47 fold

# Block 3
# Structure (SMILES): O=C1Nc2ccccc2/C1=C\c1c(Cl)[nH]c2ccccc12
# Read-out: enzyme activity
# Mode: inhibitor
# Concentration: 0.5 µM
# Baseline: control
target,remaining activity
"STK11 (Homo sapiens, UniProt Q15831)",83.4%
"IKBKB (Homo sapiens, UniProt O14920)",106%
"GRK3 (Homo sapiens, UniProt P35626)",90.1%
"NEK2 (Homo sapiens, UniProt P51955)",99%
"CAMKK2 (Homo sapiens, UniProt Q96RR4)",97.8%
"MAP3K3 (Homo sapiens, UniProt Q99759)",112%
"cGMP-dependent protein kinase 1, isoform beta (PRKG1, Homo sapiens, UniProt Q13976)",93.6%
"Protein kinase C beta type, isoform beta-I (PRKCB, Homo sapiens, UniProt P05771)",105%
"CHEK2 (Homo sapiens, UniProt O96017)",99.4%
"Cyclin-dependent kinase 4, with cyclin D1 (CDK4, Homo sapiens, UniProt P11802)",98.4%
"CAMK2D (Homo sapiens, UniProt Q13557)",86.7%
"MAPK9 (Homo sapiens, UniProt P45984)",101%
"PRKACA (Homo sapiens, UniProt P17612)",102%
"STK10 (Homo sapiens, UniProt O94804)",90.9%
"IKBKE (Homo sapiens, UniProt Q14164)",98%
"STK39 (Homo sapiens, UniProt Q9UEW8)",104%
"TGFBR1 (Homo sapiens, UniProt P36897)",94.4%
"Tyrosine-protein kinase Lyn, isoform B (LYN, Homo sapiens, UniProt P07948)",93.6%
"PRKCA (Homo sapiens, UniProt P17252)",63.2%
"DAPK1 (Homo sapiens, UniProt P53355)",88.1%
"Cyclin-dependent kinase 5, with p25 (CDK5, Homo sapiens, UniProt Q00535)",86%
"OXSR1 (Homo sapiens, UniProt O95747)",89.1%
"TGFBR2 (Homo sapiens, UniProt P37173)",95.6%
"DAPK2 (Homo sapiens, UniProt Q9UIK4)",96.8%

# Block 4
# Cell line: mouse MPNST tumor cells
# Method: high-content nuclear imaging
# Refers to: cell number
# Concentration: 10 µM
# Time: 12 h
# Notes: mean of 2 replicates
# Baseline: plate mean
# Reading: higher = more cells
SMILES,nuclei count
Clc1cccc(C(c2ccc3[nH]cnc3c2)n2ccnc2)c1 (stereo not drawn),2.96 z-score
Oc1ccc(-c2c(-c3ccccc3)nn3c(C(F)(F)F)cc(C(F)(F)F)nc23)cc1,1.36 z-score
CC1Nc2ccc(Cl)cc2S(=O)(=O)N1 (stereo not drawn),0.706 z-score
CCN(Cc1ccncc1)C(=O)C(CO)c1ccccc1 (stereo not drawn),-0.522 z-score and 0.799 z-score
CC(C)c1ccc(OCC(=O)NC2CC(C)(C)NC(C)(C)C2)c(Br)c1,-4.64 z-score
CCOC1O[C@H]([C@@H](COCc2ccccc2)OCc2ccccc2)[C@H](OCc2ccccc2)[C@H]1O (stereo partly drawn),1.92 z-score

# Block 5
# Structure (SMILES): COc1cc(-c2cn(C3CCc4ccccc4N(CC(F)(F)F)C3=O)nn2)ccc1-n1ccc(C)n1 (stereo not drawn)
# Method: competition with immobilised ligand
# Concentration: 1 µM
target,read-out,remaining binding [%]
"WNK1 (Homo sapiens, UniProt Q9H4A3)",cell-free assay,100
"CDK18 (Homo sapiens, UniProt Q07002)",cell-free assay,100
"Tyrosine-protein kinase ABL1, non-phosphorylated (ABL1, Homo sapiens, UniProt P00519, H396P)",binding,47
"RIOK1 (Homo sapiens, UniProt Q9BRS2)",cell-free assay,100

# Excerpt of the above (block 4):
SMILES,nuclei count
CC(C)c1ccc(OCC(=O)NC2CC(C)(C)NC(C)(C)C2)c(Br)c1,-4.64 z-score
Oc1ccc(-c2c(-c3ccccc3)nn3c(C(F)(F)F)cc(C(F)(F)F)nc23)cc1,1.36 z-score
Clc1cccc(C(c2ccc3[nH]cnc3c2)n2ccnc2)c1 (stereo not drawn),2.96 z-score
CC1Nc2ccc(Cl)cc2S(=O)(=O)N1 (stereo not drawn),0.706 z-score
CCOC1O[C@H]([C@@H](COCc2ccccc2)OCc2ccccc2)[C@H](OCc2ccccc2)[C@H]1O (stereo partly drawn),1.92 z-score
CCN(Cc1ccncc1)C(=O)C(CO)c1ccccc1 (stereo not drawn),-0.522 z-score and 0.799 z-score
